Experimental data pooled from the literature.
Protocols differ between the studies behind these lines. Numbers after ± are the reported error.

| SMILES | cell line | assay | test system | conditions | IC50 [µM] |
| --- | --- | --- | --- | --- | --- |
| Cc1ccc(CN2C3(NC(c4ccc(C)cc4)C24C(=O)Nc2ccccc24)C(=O)Nc2ccccc23)cc1 (stereo not shown) | B16 | cell growth or viability, MTT |  | 48 h | 49 |
| Cc1ccccc1Nc1c(-c2ccco2)nc2c(Br)cccn12 | UMRC2 |  |  |  | 19.1 |
| [BH3-][P@+]1(c2ccccc2)CC[C@@H](O)CC1 | SW-620 | cell growth or viability, MTT |  | 72 h | > 100 |
| CN1CCC(N[C@H]2CCc3[nH]c4c(C(N)=O)ccc(-c5ccccc5Cl)c4c3C2)CC1 | SU-DHL-4 | cell growth or viability |  |  | 1.95 |
| Cc1cc(NC(=O)C(=O)N2C[C@@H](C)CC[C@@H]2c2ccc3scnc3c2)cnc1N | MTAP-null HAP1 or LN-18 | cell viability |  | 7 days | 0.1 to 0.2 |
| NC(=O)c1ccc(-c2ccccc2Cl)c2c3c([nH]c12)CCC(N)C3 (stereo not shown) | SU-DHL-4 | cell growth or viability |  | 96 h | 0.0159 |
| O=C(CCc1ccco1)N1C(=O)C2(NC(c3ccc(F)cc3)C3(C(=O)Nc4ccccc43)N2Cc2ccc(F)cc2)c2ccccc21 (stereo not shown) | B16 | cell growth or viability, MTT |  | 48 h | 33.8 |
| C=CC(=O)Nc1cc(Nc2nccc(-c3cn(C)c4ccccc34)n2)c(OC)cc1N(C)CCN(C)C | Ba/F3 EGFR 19Del BBT-176-resistant BR1 | cell growth |  | 72 h | 0.0017 |
| C=CCOCO[C@H](C(=O)NC[C@@H]1C[C@@H](OC)C(C)(C)[C@@H](C[C@@H](COC)OC)O1)[C@@]1(OC)CC(=C)[C@@H](C)[C@@H](C)O1 | U-87 MG | cell viability, sulforhodamine B |  | 72 h, 37 °C, without H2O2 | 1.76 ± 1.29 |
| O=C1/C(=N\c2ccccc2Br)c2ccccc2N1Cc1ccc([N+](=O)[O-])cc1 | B16 | cell growth or viability, MTT |  | 48 h | 0.89 |
| Cc1ccc([N+](=O)[O-])cc1S(=O)(=O)N(C)/N=C/c1cnc2ccc(Br)cn12 | NCI/ADR-RES | cytotoxicity, MTS |  |  | 0.024 |
| Cn1ncc(-c2ccc3c(=O)[nH]nc(CN)c3c2)c1-c1c(F)c(Cl)cc(OC2CC2)c1C#N | NCI-H1666 | cell viability, inhibitor, CellTiter-Glo |  | 120 h, baseline-subtracted | 0.05 |
| O=C1Nc2ccccc2/C1=N/c1ccc(Cl)cc1Br | B16 | cell growth or viability, MTT |  | 48 h | 8.52 |
| CO[C@@H]1[C@@H](OC(=O)c2ccc(C)[nH]2)[C@@H](O)[C@H](Oc2ccc3c(O)c(NC(=O)c4c[nH]c(C(=O)Nc5c(O)c6ccc(O[C@@H]7OC(C)(C)[C@H](OC)[C@@H](OC(=O)c8ccc(C)[nH]8)[C@H]7O)c(C)c6oc5=O)c4C)c(=O)oc3c2C)OC1(C)C | PSN1 | cell growth or viability, ATP luminescence |  | 72 h | ~1.7 |
| COc1ccc(C(C)N(C)c2nc(N)nc3nc[nH]c23)cc1 (stereo not shown) | CHO | cytotoxicity, MTT |  |  | > 50 |
| CC(C)c1ccc(N(C)c2ccc3c(c2)OCC[C@H]3CNc2cnccc2C(=O)O)cc1 | NOMO-1 | cell growth or viability, ATP luminescence |  | 7 days | 0.00501 |
| O=C(NCc1cc(F)cc(F)c1)[C@@]1(O)CCN(c2ccc3[nH]ccc3c2)C1=O | SW872 liposarcoma | cell proliferation, BrdU incorporation |  |  | 25 |

| SMILES | cell line | assay | test system | conditions | IC50 [µM] |
| --- | --- | --- | --- | --- | --- |
| CCOC(=O)c1cc(C)n(CO)n1 | BEAS-2B | cell growth or viability, MTT |  | 24 h | > 800 |
| O=[P@]1(c2ccccc2)CC[C@H](O)CC1 | SW-620 | cell growth or viability, MTT |  | 72 h | > 100 |
| CCn1nc(Cl)c2c1-c1cnc(N)c(c1)O[C@H](C)c1cc(F)ccc1-c1nn(C)cc1C2 | Ba/F3 CD74-ROS1 wild type | cell viability |  |  | 0.0007 |
| CCCCC(=O)Nc1ccc(-c2ccc3ncn(CCC)c(=O)c3c2)cn1 | HCC827, PI5P4Kγ shRNA knockdown | cell viability, CCK-8 |  | 72 h | 0.118 ± 0.07 |
| Cc1nc(N(C)c2ccc3c(c2)/C(=C/c2cn(C)c4ccccc24)C(=O)N3C)c2ccccc2n1 | B16 | cell growth or viability, MTT |  |  | 2.23 |
| CC(=O)[O][Pt]([NH2])([NH2])([Cl])([Cl])[O]C(=O)C(C)c1ccc(CC(C)C)cc1 (stereo not shown) | PSN1 | cell growth or viability, MTT |  | 72 h | 0.99 |
| Cc1nc(N(C)c2ccc3c(c2)/C(=C/c2ccccc2)C(=O)N3C)c2ccccc2n1 | B16 | cell growth or viability, MTT |  |  | 1.68 |
| CSCC[C@H](NC(=O)[C@H](CO)NC(C)=O)C(=O)N[C@@H](CCCNC(=N)N)C(=O)N[C@@H](Cc1c[nH]c2ccccc12)C(=O)N[C@@H](CO)C(=O)N[C@@H](CCCNC(=N)N)C(=O)N[C@@H](CCCCN)C(=O)N[C@@H](CCSC)C(=O)N1CCC[C@H]1C(=O)N[C@@H](CS)C(=O)N[C@H](C(=O)N[C@@H](CO)C(=O)O)C(C)C | SUP-T1 | Erk phosphorylation, inhibitor, phospho flow cytometry |  | together with: CXCL12 100 ng/mL | > 100 |
| C=CC(=O)N1CCCC(n2c(=O)c3ncccc3n(Cc3ccc(Oc4ccccc4)cc3)c2=O)C1 (stereo not shown) | Z-138 | cell growth or viability, MTT |  | 72 h | 20 |
| COc1ccccc1/C=C1\C(=O)N(C)c2ccc(Nc3nc(C)nc4ccccc34)cc21 | BEAS-2B | cell growth or viability, MTT |  |  | 10.7 |
| CCOc1cncc(-c2ccc(NC(=O)C3(c4ccnc(NS(=O)(=O)C5CC5)n4)CCOCC3)nc2)n1 | renal cancer | cell viability, CellTiter-Glo | DMSO 0.1% | 72 h, line code 1781 | 0.616 |
| O=C(NCC1(c2nc(-c3ccccc3)cs2)CCOCC1)c1cccc(-c2noc(C(F)(F)F)n2)c1 | SU-DHL-4 | cell growth or viability, CCK-8 |  | 7 days | 3.83 |
| CNS(=O)(=O)Nc1nccc(Cc2c(C)c3ccc(Oc4ncccc4F)cc3oc2=O)c1F | RT-4 | cell viability |  | 7 days | 0.37 |
| Cc1cnc(Nc2ccc3c(c2)CCN(C(=O)/C=C/C(=O)c2ccc(Cl)cc2)C3)nc1-c1cnn(C(C)C)c1 | MDA-MB-157 | cell growth or viability, MTT |  | 48 h | 0.62 |
| C=CC(=O)N1CC2C(=O)N(CCN(C)C)c3c(c4cc(Cl)c(-c5c(O)cccc5F)nc4n(-c4c(C)ccnc4C(C)C)c3=O)N2CC1C (stereo not shown) | NCI-H23 (KRAS G12C) | cell proliferation, inhibitor |  |  | 0.00809 ± 0.00159 |
| O=C(Nc1ccc(F)cc1)NC1CCN(c2ncnc3nc[nH]c23)C1 (stereo not shown) | CHO | cytotoxicity, MTT |  |  | > 50 |
| Cc1nc(Nc2ccc3c(c2)/C(=C/c2cn(C)c4ccccc24)C(=O)N3C)c2ccccc2n1 | B16 | cell growth or viability, MTT |  |  | 3.07 |

For quick reference, copied from above:
| SMILES | cell line | assay | test system | conditions | IC50 [µM] |
| --- | --- | --- | --- | --- | --- |
| CCOc1cncc(-c2ccc(NC(=O)C3(c4ccnc(NS(=O)(=O)C5CC5)n4)CCOCC3)nc2)n1 | renal cancer | cell viability, CellTiter-Glo | DMSO 0.1% | 72 h, line code 1781 | 0.616 |
| O=C(NCC1(c2nc(-c3ccccc3)cs2)CCOCC1)c1cccc(-c2noc(C(F)(F)F)n2)c1 | SU-DHL-4 | cell growth or viability, CCK-8 |  | 7 days | 3.83 |
| CNS(=O)(=O)Nc1nccc(Cc2c(C)c3ccc(Oc4ncccc4F)cc3oc2=O)c1F | RT-4 | cell viability |  | 7 days | 0.37 |
| Cc1cnc(Nc2ccc3c(c2)CCN(C(=O)/C=C/C(=O)c2ccc(Cl)cc2)C3)nc1-c1cnn(C(C)C)c1 | MDA-MB-157 | cell growth or viability, MTT |  | 48 h | 0.62 |
| C=CC(=O)N1CC2C(=O)N(CCN(C)C)c3c(c4cc(Cl)c(-c5c(O)cccc5F)nc4n(-c4c(C)ccnc4C(C)C)c3=O)N2CC1C (stereo not shown) | NCI-H23 (KRAS G12C) | cell proliferation, inhibitor |  |  | 0.00809 ± 0.00159 |
